Published values of several laboratories.
Numbered parts are unrelated; each lists some results of a single study. Positions count from the first letter of the parent shown.

Set 1
Target: Histone acetyltransferase KAT6A, winged helix 1, GST fusion (KAT6A, Homo sapiens, UniProt Q92794, residues 1-85)
Method: protein binding microarray
Form: double-stranded DNA, one strand shown
Sample: in vitro
Concentration: not given
Notes: 8-mer, flanks averaged, mean of 2 arrays, mostly near background
Baseline: not given
Reading: higher = stronger binding
Residues (chain): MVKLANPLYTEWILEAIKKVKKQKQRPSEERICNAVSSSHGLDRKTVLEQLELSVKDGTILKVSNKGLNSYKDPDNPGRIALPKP
| Sequence | E-score |
| --- | --- |
| AGGCTGTC | -0.00051 |
| GTGAGTCA | -0.147 |
| GTGGCATA | -0.113 |
| GGGCCCTA | 0.0209 |
| GACACGTC | -0.0221 |
| TAAACACA | -0.214 |
| GTTACAAC | 0.0108 |
| GTAGTCAC | -0.0818 |
| GATAGACC | 0.0594 |
| GGGCGTCA | 0.157 |
| AGATAGCT | -0.159 |
| ATCTTCAT | -0.158 |
| TCTGGGCA | -0.228 |
| AACCGACC | 0.107 |
| AAAGTACT | -0.00571 |
| AGAACGAC | -0.0766 |
| GGCTAGCA | 0.0389 |
| AGGCAAGG | -0.219 |
| GAGTGCCC | -0.148 |
| CGGTAAAG | 0.281 |
| CAGCAGGC | 0.0517 |

Set 2
Target: Sal-like protein 4, full length isoform A (SALL4, Homo sapiens, UniProt Q9UJQ4, residues 1-1053)
Chain of UniProt Q9UJQ4 (whole entry, looked up): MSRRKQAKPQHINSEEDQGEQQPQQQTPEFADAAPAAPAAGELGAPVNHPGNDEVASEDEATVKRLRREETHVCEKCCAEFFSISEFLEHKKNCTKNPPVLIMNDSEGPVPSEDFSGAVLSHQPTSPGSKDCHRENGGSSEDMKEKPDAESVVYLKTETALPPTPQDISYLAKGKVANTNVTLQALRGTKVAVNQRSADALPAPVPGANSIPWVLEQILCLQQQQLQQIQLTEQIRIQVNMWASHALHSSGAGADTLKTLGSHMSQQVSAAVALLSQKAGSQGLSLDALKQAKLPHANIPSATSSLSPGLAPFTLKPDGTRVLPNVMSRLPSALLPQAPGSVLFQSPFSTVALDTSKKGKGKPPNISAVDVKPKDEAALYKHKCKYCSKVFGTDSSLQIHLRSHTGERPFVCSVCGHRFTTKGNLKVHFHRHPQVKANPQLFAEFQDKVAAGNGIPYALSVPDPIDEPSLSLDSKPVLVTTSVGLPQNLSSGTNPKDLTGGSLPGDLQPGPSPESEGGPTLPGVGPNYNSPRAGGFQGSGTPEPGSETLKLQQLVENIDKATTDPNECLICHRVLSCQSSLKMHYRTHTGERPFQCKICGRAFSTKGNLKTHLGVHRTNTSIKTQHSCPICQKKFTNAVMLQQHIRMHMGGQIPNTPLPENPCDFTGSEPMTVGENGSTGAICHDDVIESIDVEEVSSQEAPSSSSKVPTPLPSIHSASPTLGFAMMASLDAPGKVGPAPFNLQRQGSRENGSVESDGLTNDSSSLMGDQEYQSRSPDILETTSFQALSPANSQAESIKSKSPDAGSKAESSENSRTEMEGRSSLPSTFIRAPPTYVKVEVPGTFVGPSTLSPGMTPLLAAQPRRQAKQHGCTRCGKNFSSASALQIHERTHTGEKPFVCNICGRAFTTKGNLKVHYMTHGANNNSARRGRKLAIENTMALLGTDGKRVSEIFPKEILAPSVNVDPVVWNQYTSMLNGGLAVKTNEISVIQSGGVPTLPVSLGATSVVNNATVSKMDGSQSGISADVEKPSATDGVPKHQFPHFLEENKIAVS
Method: universal PBM
Form: double-stranded DNA, one strand shown
Sample: in vitro
Concentration: 600 nM
Notes: 8-mer, flanks averaged, mean of replicates
Reading: higher = stronger binding
| Sequence | E-score |
| --- | --- |
| ACAAGTGT | -0.0387 |
| AACTGCTA | 0.0624 |
| ACATACTC | 0.137 |
| AAGGCCGT | -0.177 |
| CCACGGGG | -0.402 |
| TCGGCCCA | -0.236 |
| GCTAAACC | -0.246 |
| AATCGTGG | 0.11 |
| CGGATGCA | -0.0982 |
| GATCAAAC | 0.044 |
| CCAGAAGA | -0.0125 |
| ATAAGTCC | 0.217 |
| CTGCCGGA | -0.165 |
| AGTTTTGG | 0.0759 |
| CGCTAGGA | -0.168 |
| GCCTACAC | -0.107 |

Set 3
Target: CCNE2, cyclin fold, Cln2 fusion (human)
Method: yeast growth competition, sequencing
Sample: yeast
Notes: weak parent motif
Baseline: not given
Reading: higher = stronger binding
Starting sequence: BORA docking peptide (human); SSLRRKLFLDGNG
| Change | normalised enrichment score |
| --- | --- |
| R4A | 0.349 |
| S1A | 1.01 |
| N12A | 1.04 |
| K6A | 0.848 |
| F8L | 0.925 |
| R5A L7A | -0.276 |
| R5K | 1.07 |
| G11A | 1.46 |
| L7A | -0.134 |

Set 4
Target: Ras GTPase-activating protein-binding protein 1, C-terminal RGG region (G3BP1, Homo sapiens, UniProt Q13283)
Chain of UniProt Q13283 (whole entry, looked up): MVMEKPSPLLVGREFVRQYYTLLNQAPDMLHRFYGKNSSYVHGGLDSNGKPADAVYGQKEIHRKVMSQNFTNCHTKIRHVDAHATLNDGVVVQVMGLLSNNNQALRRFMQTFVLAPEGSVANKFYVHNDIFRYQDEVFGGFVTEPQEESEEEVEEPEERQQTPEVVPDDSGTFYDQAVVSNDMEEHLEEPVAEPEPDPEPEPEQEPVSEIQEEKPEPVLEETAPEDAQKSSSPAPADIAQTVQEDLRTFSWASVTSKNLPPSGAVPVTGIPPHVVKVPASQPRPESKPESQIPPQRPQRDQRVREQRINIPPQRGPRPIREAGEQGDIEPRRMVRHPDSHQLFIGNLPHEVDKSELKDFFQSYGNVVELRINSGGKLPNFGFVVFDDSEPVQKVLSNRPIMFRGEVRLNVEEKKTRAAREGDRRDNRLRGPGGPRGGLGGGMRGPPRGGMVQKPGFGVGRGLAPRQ
Method: RNA Bind-n-Seq
Form: RNA
Sample: in vitro
Concentration: 1 µM
Notes: whole 134-nt RNA, ends assumed
Added: 150 mM KCl
Baseline: input library
Reading: higher = stronger binding
All sequences stand within: GGGAGUUCUACAGUCCGACGAUC … UGGAAUUCUCGGGUGUCAAGG
| Sequence | log2 enrichment |
| --- | --- |
| UCCUGUGCUACACAUCGUAUGUACCGAAUCGGGCCCCCCGGGCCCCCCGGGGCCCCCCGGAAAGUAUUAUGUUACGCCGUUCGGAUCUGC | -1.04 |
| GCAGGAAGUAAAAACAAAUGGAAAUGCUUCGGAUAUUGGCAGGGGUGGGGGUUGCUAAGGAAAGGGUGGGAUGGGAGUGGGUAAAGAGUU | 1.91 |
| CACAGACAACACGCACCCACACAGACACAGAGGGAAGGGGUUGGGAUGGGGACAGGGUGCACAGCAGGGCGGGGUAGUACCCCAGCCCCU | -0.817 |
| AAGUCCUGUGCUACACAUCGUAUGUACCGAAUCAAACCCAAACCCAAACCCCCAAAAAAGUAUUAUGUUACGCCGUUCGGAUCUGCACUU | -1.15 |
| GCAGGAAGUAAAAACAAAUGGAAAUGCUUCGGAUAGUGGCAGGGGUGGGUGUUGCUAAGGAAAGGGUGGGAUGGGAGUGGGUAAAGAGUU | 1.48 |
| CACAGACAACACGCACCCAUACAGACACAGAGGGAAGGGGUUGGGAUGGGGACAGGGUGCACAGCAGGGCGGGGUAGGACCCCAGCCCCU | 0.162 |
| CUCAAGUCCUGUGCUACACAUCGUAUGUACCGAAUCGGUGGAAAGGUUUUUGGAAAGUAUUAUGUUACGCCGUUCGGAUCUGCACUUCCA | -1.03 |
| CACAGACAACACGCACCCACACUGACACAGAGGGAAGGGGUUGGGAUGGGGACAGGGUGCACAGCAGGGCGGGGUAGGACCCCAGCCCCU | -0.251 |
| UCAAGUCCUGUGCUACACAUCGUAUGUACCGAAUCGGAAAGGAAAGGGGAAAGGGAAAGUAUUAUGUUACGCCGUUCGGAUCUGCACUUC | -1.59 |

Set 5
Target: RNA binding protein fox-1 homolog 2, RRM domain, GST-SBP tag (RBFOX2, Homo sapiens, UniProt O43251-10, residues 100-194)
Method: RNA Bind-n-Seq
Form: RNA
Sample: in vitro
Concentration: 365 nM
Notes: natural RNA segment, single round, ends assumed
Baseline: no-protein control
Reading: higher = stronger binding
All sequences stand within: GGGAGUUCUACAGUCCGACGAUC … UGGAAUUCUCGGGUGCCAA
Target sequence (chain): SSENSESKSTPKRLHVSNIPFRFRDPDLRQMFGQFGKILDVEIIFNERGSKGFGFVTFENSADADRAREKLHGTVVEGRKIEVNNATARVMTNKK
| Sequence | RBNS enrichment (R) |
| --- | --- |
| UUCCUCUCUGAGUCCCAGCUAUGGGGAACAUCUGGAGUCAGCAGAACCAUUGGGACCUGAGGCAGGAGUGUCACCUGCGGGAGAAGUCUGCCCGCUGCCCUCUGUCAUCC | 0.315 |
| AUGAAGAAGGGUGUGAAGGCUGAACAAUCAUGGAUUUUUCUGAUCAAUUGUGCUUUAGGAAAUUAUUGACAGUUUUGCACAGGUUCUUGAAAACGUUAUUUAUAAUGAAA | 0.738 |
| GAACUCUAGUGCACUUAUCAUUUUGUAGACCAUGUGGAAUUUAAUAAGAUACUUUUCCCCACUCCUUUCUUUGUGUGUAGUGCAGCAACAGUUUGGUCUGCAUUUGUUAG | 0.845 |
| UCUUUUUCAAGAGAUUCUGAGGCAGUCCCCACCCAAUCCAAAUAGGUAGCUGCUUGUGCAGGUCCUGUGCCCAUGGCUUGCUGUGGAGGAGUGUGGCUGAUGGCCUGGGA | 0.187 |
| CUUAUUUGUGCAGUCUGACUACACAGAGGCGUAUAAUCCCAAAAUGAAACGUGAUGAACGCACCUUAAUAAAUCCAGAUAUUAAAGUUGUAGACUUUGGUAGUGCAACAU | 1.29 |
| ACAUUCCUGGACACCCUCACCACCCCGCAGUGAUGAUGCAUGGAGGACAGCCCCACCCUGGAAUGCCAAUGUCAGCCUCAAGCCCCUCGGUUCUUAACACAGGAGACCCG | 4 |
| AGUAGCAUAUCCUGUCCUGAAAGUGUGUGUAGUUUUACUUGUUCAACAGAAUGUCCGACAGCAUCCUUUAAAACUUAAAGAGAAAGACAACUUUGCAGAAAGAGACACAG | 0.659 |
| GACAAUAUAUCAUAACUUAAUAAAUAUUGUAUUUUAGAUAUAUUCUCUAAUAAAAUUCAGAAUUCUAUUCUGGGUUAUUUAUUUAUUUAUUUUUAUUAUACUUUAAGUUU | 1.42 |

A few entries again (set 3):
| Change | normalised enrichment score |
| --- | --- |
| N12A | 1.04 |
| K6A | 0.848 |
| F8L | 0.925 |
| R5A L7A | -0.276 |
| R5K | 1.07 |
| G11A | 1.46 |
| L7A | -0.134 |
